Measured values gathered from unrelated publications.
Numbered parts are unrelated; each lists some results of a single study.

Block 1
Target: RING finger protein unkempt homolog, zinc fingers 1-6, GST-SBP tag (UNK, Homo sapiens, UniProt Q9C0B0, residues 30-357)
Method: RNA Bind-n-Seq
Molecule type: RNA
Matrix: in vitro
Tested at: not given
Notes: RNA with constant flanks, human and mouse sites, ends assumed
Relative to: input RNA pool
Direction: higher = stronger binding
Construct (chain): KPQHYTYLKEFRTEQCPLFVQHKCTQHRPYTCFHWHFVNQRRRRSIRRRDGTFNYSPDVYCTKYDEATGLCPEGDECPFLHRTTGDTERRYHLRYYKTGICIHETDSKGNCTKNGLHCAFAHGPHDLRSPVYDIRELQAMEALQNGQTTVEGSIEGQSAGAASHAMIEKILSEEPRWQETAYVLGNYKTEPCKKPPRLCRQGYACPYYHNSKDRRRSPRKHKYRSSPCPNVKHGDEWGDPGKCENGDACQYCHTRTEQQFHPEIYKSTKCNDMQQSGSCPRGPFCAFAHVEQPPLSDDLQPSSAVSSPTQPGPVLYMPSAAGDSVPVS
Oligonucleotide	bound/input enrichment
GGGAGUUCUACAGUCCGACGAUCCCAGGGCCUCCGCCAGCAGGGAGGGGGUGUGCUCACUGCAGGAACGUUCAUUUAGAAGAUGUACCAUGGAGCACCUCCCUUUGCUCUAAGAGAAAACCCAUCUUAAAGUUCAUCUUGAAUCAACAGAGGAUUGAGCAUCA	0.097 ratio
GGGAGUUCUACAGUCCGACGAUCUCUCUAAGAGGAAGACCUUCAAAUUUGGUUCAUACGACAACAGUUAUUAAGAGAGAUUUCUAGUAAUCUUCAGAUGUGAGGUUUUUUUUCUGCCAACAAAAGUCACAUUCAAAUUGUAUUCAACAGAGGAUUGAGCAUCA	0.898 ratio
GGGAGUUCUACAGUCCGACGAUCCAAAACAUUUACCCAAAACCUGUUACAGAAAUAGCAAAGCCAGUAAUACUAAAUACCACACAAAUUCCAAAGAAUGUUGCUACAGAGACACAAUUGAAAGGUGGUCAGCAUUCUCAAGCUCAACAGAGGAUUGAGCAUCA	1.29 ratio
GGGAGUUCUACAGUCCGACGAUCUGGAAACUGAUUUAAGAAGGAAGUACUUGACCCAGGUGGAUAUAUUGCCUCAAGAUGAAGAGUAUUUUAAGGAUGCCAGGAUGCUAUCUCUGCAAAGAGCUCUGGUGGUCCUGAAGUAUCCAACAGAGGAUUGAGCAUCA	0.169 ratio
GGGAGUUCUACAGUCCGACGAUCCCUGACACUCUGGACCCAGCGCUCAUGAGACCGGGGAGGCUGGACAGGAAGAUUGAGUUCAGCUUACCUGACUUAGAGGGUCGAACGCACAUCUUUAAGAUUCACGCUCGCUCAAUGAGUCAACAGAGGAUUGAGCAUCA	0.0571 ratio

Block 2
Target: Histone acetyltransferase KAT6A, both winged helices, GST fusion (KAT6A, Homo sapiens, UniProt Q92794, residues 1-181)
Method: protein binding microarray
Molecule type: double-stranded DNA, one strand shown
Matrix: in vitro
Tested at: not given
Notes: 8-mer, flanks averaged, mean of 2 arrays, mostly near background
Relative to: not given
Direction: higher = stronger binding
Construct (chain): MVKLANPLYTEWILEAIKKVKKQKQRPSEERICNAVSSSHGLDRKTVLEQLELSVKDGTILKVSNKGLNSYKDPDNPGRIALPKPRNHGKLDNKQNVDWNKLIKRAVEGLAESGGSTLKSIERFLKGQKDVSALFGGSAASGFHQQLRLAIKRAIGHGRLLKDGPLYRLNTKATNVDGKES
Oligonucleotide	E-score
ACCGCCCC	0.116
AGTGTGGA	-0.179
AATATATC	-0.0799
AGGGCCCG	0.201
ATTTGTCG	-0.0386

Block 3
Target: Ras GTPase-activating protein-binding protein 1, full length (G3BP1, Homo sapiens, UniProt Q13283)
UniProt Q13283, sequence (whole entry, looked up): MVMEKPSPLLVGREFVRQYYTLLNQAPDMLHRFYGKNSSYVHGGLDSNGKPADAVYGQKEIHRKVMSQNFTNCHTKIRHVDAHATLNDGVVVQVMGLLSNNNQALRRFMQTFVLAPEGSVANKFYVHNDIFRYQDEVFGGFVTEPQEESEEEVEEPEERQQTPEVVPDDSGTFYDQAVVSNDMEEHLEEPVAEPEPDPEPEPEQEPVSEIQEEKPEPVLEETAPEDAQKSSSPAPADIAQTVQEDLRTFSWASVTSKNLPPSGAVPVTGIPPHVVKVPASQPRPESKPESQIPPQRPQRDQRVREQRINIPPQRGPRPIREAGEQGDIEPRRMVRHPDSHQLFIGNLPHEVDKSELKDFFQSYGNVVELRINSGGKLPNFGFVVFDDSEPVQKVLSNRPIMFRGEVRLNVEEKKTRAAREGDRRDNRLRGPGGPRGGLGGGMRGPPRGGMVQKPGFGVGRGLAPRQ
Method: RNA Bind-n-Seq
Molecule type: RNA
Matrix: in vitro
Tested at: 200 nM
Notes: whole 134-nt RNA, ends assumed
Together with: 150 mM KCl
Relative to: input library
Direction: higher = stronger binding
Oligonucleotide	log2 enrichment
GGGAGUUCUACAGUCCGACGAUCGUCCUGUGCUACACAUCGUAUGUACCGAAUCGGGGAAAAAGGGGAAAAAGGGAAAAAGGAAAGUAUUAUGUUACGCCGUUCGGAUCUGCAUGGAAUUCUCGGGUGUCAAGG	-0.162
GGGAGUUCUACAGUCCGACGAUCUGUGUCUUGCUGAAUCAGGGCUCUCUUAUCCCUGCCAUCGACUUACAGUGGGAAGAAGAUCUUCACCUGCACAGACCCGGGAACAGUCGGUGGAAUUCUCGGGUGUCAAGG	-0.327
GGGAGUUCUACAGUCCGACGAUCAAGUCCUGUGCUACACAUCGUAUGUACCGAAUCGGGAGGGAAAGGGUUUUUUUGGGAAAGUAUUAUGUUACGCCGUUCGGAUCUGCACUUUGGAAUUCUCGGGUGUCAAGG	0.221
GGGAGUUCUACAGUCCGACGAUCCACAGACAACACGCACCCACACAGACACAGAGGGAAGAAAUUGGGAUGGGGACAGGGUGCACAGCAGGGCGGGGUAGGACCCCAGCCCCUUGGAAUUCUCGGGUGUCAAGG	0.844
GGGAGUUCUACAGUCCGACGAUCUCUUCCGUGACAUUUCAUUUGGGGAACAACUUUUCUCUUUACAGGCCCGAGUGACUAAGGGAUGUACCAUUGUUAAGCCUUUCAACCUGUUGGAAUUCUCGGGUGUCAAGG	0.967

Other studies, line by line
Substance	target	assay	test system	conditions	scale	endpoint	value
PhoQ, residues 284 288 289 292 302 303 AQGLTV	PhoP, residues 12 14 15 18 19 NHFIF (Escherichia coli, UniProt P23836)	Sort-seq, measured: YFP reporter	E. coli	PhoQ-PhoP variant library, together with: 10 µM Mg2+	relative to: high Mg2+ state, higher = stronger signaling	fold induction	10.3
